Experimental data from different studies.
Numbered parts are unrelated; each lists some results of a single study. Substitutions count along the parent as printed.

Series 1
Target: Histone acetyltransferase KAT6A, both winged helices, GST fusion (KAT6A, Homo sapiens, UniProt Q92794, residues 1-181)
Method: protein binding microarray
Molecule type: double-stranded DNA, one strand shown
Sample: in vitro
Concentration: not given
Setting: 8-mer, flanks averaged, mean of 2 arrays, mostly near background
Baseline: not given
Reading: higher = stronger binding
Residues (chain): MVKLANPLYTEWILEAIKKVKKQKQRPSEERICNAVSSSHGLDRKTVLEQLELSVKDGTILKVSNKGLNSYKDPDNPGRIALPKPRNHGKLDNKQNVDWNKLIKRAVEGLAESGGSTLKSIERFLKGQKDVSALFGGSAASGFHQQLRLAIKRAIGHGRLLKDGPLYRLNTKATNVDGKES
For `AGCCGCGA`, the E-score was 0.303.
For `TGAATGCA`, the E-score was -0.224.
With `GACTATCC` the E-score was -0.05.
`AGCGCTTA` has an E-score of 0.332.
With `GAGACCCA` the E-score was 0.00464.
`AGCCTCGG` gave an E-score of -0.0204.
`TCAAAGGA` gave an E-score of -0.113.
`TATACCAA` has an E-score of -0.0771.
For `CCGGTAGG`, the E-score was 0.15.
`GACGTCAC` gave an E-score of 0.0105.
`CATGCTTC` has an E-score of 0.00747.
With `AAAATGGA` the E-score was -0.0719.
`CCGTGTAA` gave an E-score of 0.127.
`AAAATCGT` gave an E-score of -0.051.
With `GAGTAAAA` the E-score was -0.194.
For `CTTCGACC`, the E-score was -0.103.
The E-score of `CGTGCTCA` is reported as 0.0396.
`CCGCGGTA` gave an E-score of 0.383.
`ATTCACTC` has an E-score of -0.0996.
`GGCCGCCC` gave an E-score of 0.192.
For `AGCCCAGC`, the E-score was -0.107.
For `GCAAGTAC`, the E-score was -0.00178.
With `ATTATTCG` the E-score was -0.0589.

Series 2
Target: RNA binding protein fox-1 homolog 2, RRM domain, GST-SBP tag (RBFOX2, Homo sapiens, UniProt O43251-10, residues 100-194)
Method: RNA Bind-n-Seq
Molecule type: RNA
Sample: in vitro
Concentration: 365 nM
Setting: natural RNA segment, single round, ends assumed
Baseline: no-protein control
Reading: higher = stronger binding
Construct (chain): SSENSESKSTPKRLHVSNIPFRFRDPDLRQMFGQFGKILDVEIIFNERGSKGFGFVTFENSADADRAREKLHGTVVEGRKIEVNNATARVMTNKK
Under “RBNS enrichment (R)”, `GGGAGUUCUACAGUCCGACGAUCCCCCUUCUACUACUUUCCCUCUCGCCCUGCCACCUAGUUCCACAUGGAACCAACAAGUUGAGUGCAUCCCUGUUGGGUGUUUUGUGUUGAGACUGGCUGAAAUGAGGAGAUGGAAUUCUCGGGUGCCAA` is recorded as 0.333.
For `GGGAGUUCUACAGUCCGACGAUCUUUUUAAUUGGUGUUAGAUGACAUGAUUAAUAAAAAAGGCAAGAUAUUUUCAGAAUUUGAAUUUCAGUUUUUUUUUCUUUUGAAAUAGCCCUUUUAAAUUUUUUUAUUAUUGGAAUUCUCGGGUGCCAA`, “RBNS enrichment (R)” read 1.63.
`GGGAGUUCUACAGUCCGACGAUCGGAAUGAGACUGCUUUUAAAGCAACACAUCAGAUCUUCUGCGUCUAAAAUGUAGAGUUUUUUUGAUUGAGUAAUUAUACUUACUACUUAAUAAAUACUUAUUAAAAUGCUUGGAAUUCUCGGGUGCCAA` — result for “RBNS enrichment (R)”: 0.483.
`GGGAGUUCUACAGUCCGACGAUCUGAAUGCCUCCUGUGCUGUCUAGUGGGACUACAGAAUGCUGUUUGAUACUGUGUGCGACGUGGAGAGAUUUAAUUAUUUGUAAUAAAGGAUUUGCUAUGGUCUAUUAAUUUGGAAUUCUCGGGUGCCAA` — result for “RBNS enrichment (R)”: 2.39.
`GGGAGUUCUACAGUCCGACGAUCGUCAUUUUCUCAAAUCAUAUUCCAUUGUAUCAGUUAACAUAUAGUUUUAAAUGUAUGUAUUAUAAAUAUCUGUAACCAAAUCAUUUGAAGGCUUGAUAAAUUUUUAACAAUGGAAUUCUCGGGUGCCAA`: “RBNS enrichment (R)” 1.26.
For `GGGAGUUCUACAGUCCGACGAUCUUUUACGCUAGAAGCUAGGCGGAAGUGAGUGGGCGGGGAUAUGCAAAUAACUAUCUCACAUAGCGCUUCUAAUUUGCCGCGUGUGAGGGGAGCAUUCUGGGAUGGUUUUGUGGAAUUCUCGGGUGCCAA`, “RBNS enrichment (R)” read 1.06.
For `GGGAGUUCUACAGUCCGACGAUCGUCACUUUCCAUAUUAUACCCUCUAUAAAGUUGUCGAAUUGGAUGGGAGUUCUUUCUAACUAGCCAUCACACCUGUAGCUUUAGUUGCUUUGUGUGGCUUCUGGCCUAGCUGGAAUUCUCGGGUGCCAA`, “RBNS enrichment (R)” read 0.674.
`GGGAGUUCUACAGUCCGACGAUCGACCUGAUCUGAAGUGCACCAAGGAAGUAUCUGGUGGUUCUCCUGAGAUGGGGGCCUUGCAGCCCAGCACCCCCUCACUGCCAGCAGGGCACCAGGAGACAGGGUCCAGGUGGAAUUCUCGGGUGCCAA`: “RBNS enrichment (R)” 0.427.
`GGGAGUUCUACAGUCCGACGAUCCCUUGGCCUUUAGGUCCCUGGUGGAGGGAGAUGACCCAUGCCAGGUCCAGCACAAGAUGUGAAGAUUAAAUGCCUAUUCUUACUGAAGGUUUGAUGUGGAAUCAUGGCUGUGGAAUUCUCGGGUGCCAA` — result for “RBNS enrichment (R)”: 0.553.
`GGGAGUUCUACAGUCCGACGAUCUUAUAUUUAUGCUUCUGUGUCAUGAUUUUUUCAAGCUGUUAUAUUAGUUGUAACCAGUAGUAUUCACAUUAAAUCUUGCUUUUUUUCCCCUUAAAAAAAGAAAAAAAUUAUGGAAUUCUCGGGUGCCAA` — result for “RBNS enrichment (R)”: 1.25.
`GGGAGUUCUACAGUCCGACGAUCGAUUUGAAUUGAUUGACAAGUCCUGGCAUGUGACAAUUUUACUAAAUUACCAAGUUUGGUUUUUAAUAAUUUCACAAUAUUAUGCGCCAAGAUCUAAUUUUAAAAAUGUAUGGAAUUCUCGGGUGCCAA`: “RBNS enrichment (R)” 0.619.
Under “RBNS enrichment (R)”, `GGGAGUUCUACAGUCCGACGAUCGACUGAAAUAUCUUGACAGUUGAGAUGUGGUCAGGUGAAAAGCUACAUCUCCAUUACAAGUUGGAACUCAGUAGAAUCAAACCUUGUUACUUUAAGAUCUGUAGAAAUAAUGGAAUUCUCGGGUGCCAA` is recorded as 0.654.

Series 3
Target: Ras GTPase-activating protein-binding protein 1, full length (G3BP1, Homo sapiens, UniProt Q13283)
Chain of UniProt Q13283 (whole entry, looked up): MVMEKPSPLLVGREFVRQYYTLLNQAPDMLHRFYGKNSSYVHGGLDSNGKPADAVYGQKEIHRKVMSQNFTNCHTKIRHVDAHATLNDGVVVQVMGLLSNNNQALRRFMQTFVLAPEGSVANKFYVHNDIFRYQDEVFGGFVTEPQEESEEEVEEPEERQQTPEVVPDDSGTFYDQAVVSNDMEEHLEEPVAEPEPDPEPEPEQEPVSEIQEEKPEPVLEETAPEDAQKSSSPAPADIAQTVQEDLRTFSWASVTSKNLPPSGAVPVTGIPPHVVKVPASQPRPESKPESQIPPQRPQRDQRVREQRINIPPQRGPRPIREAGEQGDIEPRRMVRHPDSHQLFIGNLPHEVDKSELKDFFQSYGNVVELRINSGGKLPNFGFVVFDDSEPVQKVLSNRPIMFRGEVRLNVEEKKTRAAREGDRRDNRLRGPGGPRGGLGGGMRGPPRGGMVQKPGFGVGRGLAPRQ
Method: RNA Bind-n-Seq
Molecule type: RNA
Sample: in vitro
Concentration: 200 nM
Setting: whole 134-nt RNA, ends assumed
Added: 150 mM KCl
Baseline: input library
Reading: higher = stronger binding
The log2 enrichment of `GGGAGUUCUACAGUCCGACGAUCCUGUGCUACACAUCGUAUGUACCGAAUCGGGGCCCCCCCGGGGCCCCCCCGGGCCCCCCCGGAAAGUAUUAUGUUACGCCGUUCGGAUCUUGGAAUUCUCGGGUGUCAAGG` is reported as -0.928.
For `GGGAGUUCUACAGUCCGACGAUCGUCCUGUGCUACACAUCGUAUGUACCGAAUCGGGGUUUUUUUGGGGAAAGGGGUGGGGAAAGUAUUAUGUUACGCCGUUCGGAUCUGCACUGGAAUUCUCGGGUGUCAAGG`, the log2 enrichment was 0.0617.
`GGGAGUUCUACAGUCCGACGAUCACCAUGCAGGUGGGCAUCUUUGGGAAGUGGGGCAAGGGGGGGAUAGGGAGGGGGGUAACACUUUGGGAACAGGUGGUCCCAGGUCUUUUCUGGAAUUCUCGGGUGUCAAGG` has a log2 enrichment of 1.19.
With `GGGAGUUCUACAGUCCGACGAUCUCAAGUCCUGUGCUACACAUCGUAUGUACCGAAUCGGGGUUGGGUUGGGUUGGGGAAAGUAUUAUGUUACGCCGUUCGGAUCUGCACUUCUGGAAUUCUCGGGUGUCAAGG` the log2 enrichment was 0.942.
`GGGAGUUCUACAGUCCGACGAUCAGUCCUGUGCUACACAUCGUAUGUACCGAAUCGGGUUUUUGGGAAAGGGUUUUUGGGAAAGUAUUAUGUUACGCCGUUCGGAUCUGCACUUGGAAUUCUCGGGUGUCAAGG` has a log2 enrichment of -0.314.
With `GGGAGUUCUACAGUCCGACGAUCCCUCAAGUCCUGUGCUACACAUCGUAUGUACCGAAUCGGGAGGGGAGGAGGGGAAAGUAUUAUGUUACGCCGUUCGGAUCUGCACUUCCAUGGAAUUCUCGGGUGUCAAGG` the log2 enrichment was 1.24.
For `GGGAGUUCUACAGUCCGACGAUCACCAUGCAGGUGGGCAUCUUUGGGAAGUGGGGCAAGGGGGGGAUAGGGAGGGGGGUAACACUUUGGGAACAGGUGGUCCCAGGUAAAUUCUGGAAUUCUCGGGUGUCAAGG`, the log2 enrichment was 1.11.
`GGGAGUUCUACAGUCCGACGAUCAAGUCCUGUGCUACACAUCGUAUGUACCGAAUCGGGAAAAGGGGAAAAGGAAAAGGAAAGUAUUAUGUUACGCCGUUCGGAUCUGCACUUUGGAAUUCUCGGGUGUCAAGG` has a log2 enrichment of -0.932.
The log2 enrichment of `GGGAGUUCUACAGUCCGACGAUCUCCUGUGCUACACAUCGUAUGUACCGAAUCGGGCCCCCCGGGCCCCCCGGCCCCCCGGGGAAAGUAUUAUGUUACGCCGUUCGGAUCUGCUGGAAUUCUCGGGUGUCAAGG` is reported as -0.228.
`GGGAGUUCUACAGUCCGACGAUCAGUCCUGUGCUACACAUCGUAUGUACCGAAUCGGGAGGGAAAAAGGGUUUUUUUGGGAAAGUAUUAUGUUACGCCGUUCGGAUCUGCACUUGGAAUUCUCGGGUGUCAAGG` has a log2 enrichment of -0.0293.

Series 4
Target: ABI1, truncated, D143A, DHFR fusion (Arabidopsis thaliana)
Method: DHFR PCA, deep sequencing
Sample: yeast
Setting: methotrexate growth selection, single substitutions
Added: (+)-ABA 4.8 µM
Baseline: wild-type fitted maximum
Reading: higher = stronger binding
Starting sequence: PYL1, truncated, DHFR fusion (Arabidopsis thaliana); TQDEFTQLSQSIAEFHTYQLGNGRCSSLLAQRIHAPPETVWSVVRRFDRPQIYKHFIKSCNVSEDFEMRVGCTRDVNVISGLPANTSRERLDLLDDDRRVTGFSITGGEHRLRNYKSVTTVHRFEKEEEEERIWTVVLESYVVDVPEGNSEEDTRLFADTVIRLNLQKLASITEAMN; partner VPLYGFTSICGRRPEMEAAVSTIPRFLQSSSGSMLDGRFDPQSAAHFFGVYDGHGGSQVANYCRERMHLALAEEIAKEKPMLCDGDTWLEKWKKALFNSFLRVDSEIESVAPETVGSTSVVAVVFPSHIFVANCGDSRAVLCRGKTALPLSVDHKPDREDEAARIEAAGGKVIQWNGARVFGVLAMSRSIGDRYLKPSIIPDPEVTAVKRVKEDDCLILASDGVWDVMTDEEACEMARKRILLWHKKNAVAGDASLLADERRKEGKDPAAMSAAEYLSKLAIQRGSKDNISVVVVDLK
Under “relative binding score”, `T101H` is recorded as -0.356%.
Under “relative binding score”, `E130V` is recorded as 72.6%.
`A35W`: “relative binding score” -2.69%.
For `H55Q`, “relative binding score” read 94.2%.
Under “relative binding score”, `R163P` is recorded as -1.26%.
For `V142T`, “relative binding score” read 76.3%.
`E147V` — result for “relative binding score”: 61.6%.
`F56Y` — result for “relative binding score”: 27.8%.
`S117K` — result for “relative binding score”: -5.94%.
Under “relative binding score”, `F47Y` is recorded as 5.39%.

A few entries again (series 1):
The E-score of `CGTGCTCA` is reported as 0.0396.
For `CCGGTAGG`, the E-score was 0.15.
`CATGCTTC` has an E-score of 0.00747.
`AGCCTCGG` gave an E-score of -0.0204.
`TATACCAA` has an E-score of -0.0771.
With `AAAATGGA` the E-score was -0.0719.
`TCAAAGGA` gave an E-score of -0.113.
`CCGCGGTA` gave an E-score of 0.383.
